Assay results pooled from the literature.
pIC50: −log10 of the molar value.
Mode: inhibitor
HDAC3: Histone deacetylase 3 (HDAC3, Homo sapiens, UniProt O15379)
Sequence of UniProt O15379 (whole entry, looked up): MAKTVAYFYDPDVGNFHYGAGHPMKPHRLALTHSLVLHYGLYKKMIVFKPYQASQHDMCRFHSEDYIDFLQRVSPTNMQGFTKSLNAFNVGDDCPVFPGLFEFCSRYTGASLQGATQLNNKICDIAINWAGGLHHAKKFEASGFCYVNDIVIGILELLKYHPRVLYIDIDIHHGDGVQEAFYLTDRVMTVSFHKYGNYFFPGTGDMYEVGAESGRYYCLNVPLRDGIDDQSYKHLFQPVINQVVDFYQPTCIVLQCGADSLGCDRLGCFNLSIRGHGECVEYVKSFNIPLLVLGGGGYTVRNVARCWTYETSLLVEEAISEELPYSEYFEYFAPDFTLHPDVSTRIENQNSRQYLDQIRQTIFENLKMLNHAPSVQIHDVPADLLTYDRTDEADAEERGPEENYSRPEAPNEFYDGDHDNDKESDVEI

O=C(CCCCCCNCc1ccc([N+](=O)[O-])cc1)NO
pIC50 (HDAC3; enzyme activity, fluorescence): 6.00

COCCn1cc2c(n1)CN(C(=O)Nc1nc(-c3ccc(F)cc3F)ccc1N)C2
pIC50 (HDAC3; deacetylase activity; co-expressed with NCOR2): 4.56

O=C(CCCCCCNc1ccc(C(=O)Nc2ccc(Cl)c(NC(=O)c3cccc(Cl)c3)c2)cn1)NO
pIC50 (HDAC3; enzyme activity, fluorescence; lysate): 7.15

O=C(/C=C/c1ccc2c(c1)CCN(Cc1ccccc1)C2=O)NO
pIC50 (HDAC3; enzyme activity): 6.43

O=C(CCCCCCNCc1ccccc1)NO
pIC50 (HDAC3; enzyme activity, fluorescence): 6.37

Nc1ccc(-c2cccs2)cc1NC(=O)c1ccccc1
pIC50 (HDAC3; enzyme activity): 5.77

O=C(CCCC(=O)Nc1ccc(-[c-]2cccc2)cc1)NO.[Fe+2].c1cc[cH-]c1
pIC50 (HDAC3; enzyme activity, fluorescence): 5.50

CN1CCN(C(=O)N(CCCCCCC(=O)NO)c2ccc(-c3ccc4cnn(C)c4c3)cc2)CC1
pIC50 (HDAC3; enzyme activity, fluorescence): 9.21

COc1ccc(CN(CCCCCCC(=O)NO)Cc2ccc(OC)c(OC)c2)cc1OC
pIC50 (HDAC3; enzyme activity, fluorescence): 6.54

Cn1cc2c(n1)CN(C(=O)Nc1nc(-c3ccc(F)cc3)ccc1N)C2
pIC50 (HDAC3; deacetylase activity; co-expressed with NCOR2): 4.69

O=c1c2ccccc2sn1-c1ccccc1
pIC50 (HDAC3; enzyme activity): 5.57

O=C(CCCCCCN(Cc1ccc(F)cc1)Cc1ccc(F)cc1)NO
pIC50 (HDAC3; enzyme activity, fluorescence): 5.44

O=c1c2ccccc2[s+]([O-])n1-c1ccccc1 (centres unmarked)
pIC50 (HDAC3; enzyme activity): < 5.00

Cc1cc(CN(CCCCCCC(=O)NO)Cc2ccc(F)c(C)c2)ccc1F
pIC50 (HDAC3; enzyme activity, fluorescence): 5.33

O=c1c2ccccc2on1-c1ccccc1
pIC50 (HDAC3; enzyme activity): < 5.00

Nc1ccc(-c2ccccc2)cc1NC(=O)N1CCCCC1
pIC50 (HDAC3; enzyme activity): 5.71

COc1ccc(CNCCCCCCC(=O)NO)cc1OC
pIC50 (HDAC3; enzyme activity, fluorescence): 6.74

CCC(=O)CCCCC[C@@H]1NC(=O)[C@@H](C)n2nncc2[C@@H](CC(C)C)NC(=O)[C@H](Cc2c[nH]c3ccccc23)NC1=O
pIC50 (Histone deacetylase 3, with NCoR2 (HDAC3, Homo sapiens, UniProt O15379); enzyme activity; complex with NCoR2): 6.92

Nc1ccc(-c2ccncc2)cc1NC(=O)N1CCCCC1
pIC50 (HDAC3; enzyme activity): 4.99

O=C(CCCCCCC(=O)NC[c-]1cccc1)NO.[Fe+2].c1cc[cH-]c1
pIC50 (HDAC3; enzyme activity, fluorescence): 7.14

Repeated from above:
O=C(/C=C/c1ccc2c(c1)CCN(Cc1ccccc1)C2=O)NO
pIC50 (HDAC3; enzyme activity): 6.43

O=C(CCCCCCNCc1ccccc1)NO
pIC50 (HDAC3; enzyme activity, fluorescence): 6.37

Nc1ccc(-c2cccs2)cc1NC(=O)c1ccccc1
pIC50 (HDAC3; enzyme activity): 5.77
